Measured values from different studies.
Lines come from different studies, so protocols differ. Numbers after ± are the reported error.
Cell line: PC-3

SMILES	assay	system	conditions	IC50
Cc1c(Cc2ccccc2)c(=O)oc2c(C)c(OCC(=O)NN=Cc3ccc([N+](=O)[O-])cc3)ccc12	cytotoxicity	–	–	23100 nM
C[C@H](Nc1ccc2c(c1)OCCn1cc(N3C(=O)OC[C@H]3C(F)F)nc1-2)C(N)=O	western blot, refers to: phospho-PKB/Akt Ser473	–	2 h	1210 nM
O=C1NCCc2[nH]c(-c3ccncc3)cc21	MTS	prostate cancer	–	9180 nM
CCCOc1ccc2c(C)c(CC)c(=O)oc2c1C	cell viability, MTT	–	–	152 µg/mL
COc1cc(C(=O)c2nc(-c3cccc4c3CCN4)c[nH]2)cc(OC)c1OC	cell proliferation, MTS	–	72 h	22.1 ± 3.3 nM
Cc1nc(NC(=O)N2CCC[C@H]2C(N)=O)sc1-c1ccnc(C(C)(C)C(F)(F)F)c1	western blot, refers to: phospho-S6 Ser235/Ser236	–	2 h	1650 nM
O=C1NC(=NCc2cccs2)S/C1=C\c1ccc2ncccc2c1	MTS	prostate cancer	–	> 10000 nM
CCC(=O)N1CCC(COCC(=O)N2CCN(c3nc(-c4cnc(N)nc4C(F)F)nc(N4CCOC[C@@H]4C)n3)CC2)CC1	western blot, refers to: phospho-PKB/Akt Ser473	–	2 h	183 nM
C[C@H](CCC(=O)O)[C@H]1CC[C@H]2[C@@H]3CC[C@@H]4C[C@H](O)CC[C@]4(C)[C@H]3CC[C@]12C	cell viability, MTT	–	72 h	51000 ± 600 nM

For quick reference, copied from above:
SMILES	assay	system	conditions	IC50
Cc1c(Cc2ccccc2)c(=O)oc2c(C)c(OCC(=O)NN=Cc3ccc([N+](=O)[O-])cc3)ccc12	cytotoxicity	–	–	23100 nM
